Published values gathered from unrelated publications.
Protocols differ between the studies behind these lines.

With Cc1c(-c2ccc(N3CCc4cccc(C(=O)Nc5nc6ccccc6s5)c4C3)nc2C(=O)O)cnn1CC12CC3(C)CC(C)(C1)CC(OCCNCC[C@H](O)CO)(C3)C2 the plasma concentration was < 4 ng/mL (anaesthetized male beagle dog; iv infusion, 0.1 mg/kg/min, 90 min).
N[C@@H](CCSC[C@H](N)C(=O)O)C(=O)O — result for “log2 fold change”: 0.023 (binding, MIDAS equilibrium dialysis LC-MS; A2AR-BRIL thermostabilized; concentration not given; reference: no-protein control).
With CCCCCN1C[C@H](O)[C@@H](O)[C@H](O)[C@@H]1CO the plasma concentration was 205 ng/mL (LC-MS/MS; mouse Hexb-/- male, plasma; 30 mg/kg/day, geometric mean).
The plasma concentration of C[C@@H](O)[C@H]1C(=O)N2C(C(=O)O)=C(S[C@@H]3CN[C@H](C(=O)N(C)C)C3)[C@H](C)[C@H]12 is reported as 2560 ng/mL (BALB/c mouse, male, plasma; intraperitoneal, dose not given, 10 h, with: combination treatment).
With COc1cccc(-c2n[nH]c(SCc3ccccn3)n2)c1OC the plasma concentration was 6240 ng/mL (Sprague-Dawley rats, both sexes; oral dietary, 100 mg/kg/day, day 7, 12 h).
For Cc1c(C(=O)O)ccc2c3n(nc12)[C@@H]1[C@H](C3)N(CC2CC2)[C@@]2(C(=O)Nc3cc(Cl)ccc32)[C@H]1c1cccc(Cl)c1F, the plasma concentration was 732 nM (female BALB/c nude mice, SJSA-1 xenograft, plasma; oral, 1 mg/kg twice daily, 24 h).
COc1ccc2c(c1)CN(C(=O)CCN1CCC(Cc3ccccc3)CC1)CC[S@@+]2[O-] gave a plasma concentration of 712 ng/mL (anesthetized male beagle dogs, plasma; intravenous, 2 mg/kg total over 30 min, end of infusion).
Under “log2 fold change”, C/C(=C/C(=O)O)C(=O)O is recorded as 0.0764 (binding, MIDAS equilibrium dialysis LC-MS; A2AR-BRIL thermostabilized; concentration not given; reference: no-protein control).
C[C@@H]1CCO[C@H]2Cn3cc(C(=O)NCc4ccc(F)cc4F)c(=O)c(O)c3C(=O)N12 gave a plasma concentration of 853 ng/mL (population PK, post-hoc; children aged 0.17 to 2 years, 6 to <10 kg, plasma; oral, 10 mg dispersible tablet, 24 h, steady state, geometric mean).
CNCCOC12CC3(C)CC(C)(CC(Cn4ncc(-c5ccc(N6CCc7cccc(C(=O)Nc8nc9ccccc9s8)c7C6)nc5C(=O)O)c4C)(C3)C1)C2 has a plasma concentration of 0 ng/mL (anaesthetised male beagle dogs; intravenous bolus, 0.03 mg/kg, 75 min).
Cc1cc([C@H]2C[C@H]3[C@@H](CF)SC(N)=N[C@@]3(c3ccc(F)cc3F)CO2)on1 has a plasma concentration of 2170 nM (male 129/SVE wild-type mouse, plasma; subcutaneous, 100 mg/kg, 3 h).

A few entries again:
With Cc1c(-c2ccc(N3CCc4cccc(C(=O)Nc5nc6ccccc6s5)c4C3)nc2C(=O)O)cnn1CC12CC3(C)CC(C)(C1)CC(OCCNCC[C@H](O)CO)(C3)C2 the plasma concentration was < 4 ng/mL (anaesthetized male beagle dog; iv infusion, 0.1 mg/kg/min, 90 min).
